Results of several laboratories.
Numbered parts are unrelated; each lists some results of a single study.

Sample 1 — method: RNA Bind-n-Seq; form: RNA; medium: in vitro; concentration: not given; baseline: input RNA pool; reading: higher = stronger binding
Target: RING finger protein unkempt homolog, zinc fingers 1-6, GST-SBP tag (UNK, Homo sapiens, UniProt Q9C0B0, residues 30-357)
Chain of UniProt Q9C0B0 (30-357, looked up): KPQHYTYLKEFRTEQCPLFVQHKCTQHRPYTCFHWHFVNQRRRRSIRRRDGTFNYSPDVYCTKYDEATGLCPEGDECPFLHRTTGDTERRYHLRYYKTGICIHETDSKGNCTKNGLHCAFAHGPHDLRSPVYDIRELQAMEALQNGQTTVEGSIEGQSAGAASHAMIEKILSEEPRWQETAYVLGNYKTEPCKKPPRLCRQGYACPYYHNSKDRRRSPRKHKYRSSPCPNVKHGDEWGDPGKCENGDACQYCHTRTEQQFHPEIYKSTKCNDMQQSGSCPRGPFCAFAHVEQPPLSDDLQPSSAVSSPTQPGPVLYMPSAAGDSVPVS
Setting: RNA with constant flanks, human and mouse sites, ends assumed
With `GGGAGUUCUACAGUCCGACGAUCUCAACAGGGGAUGCUGCGCGCCAGGGGGUGUACGAGAACUUCAGGCGGGAACUGGAGAUGAGUACCACCAACAGUGAGAGCCUGGAGGAGGCUGGCUCUGCGCACAGCGAUGAGCAGAGCCAACAGAGGAUUGAGCAUCA` the bound/input enrichment was 0.203 ratio.
`GGGAGUUCUACAGUCCGACGAUCGAGAGCGAGGAGCACUACCACCUGGACGUGGCCAUCAAGACCAUGAACAAGGUUGCCAGUCACAUCAAUGAGAUGCAGAAAAUCCAUGAAGAGUUUGGGGCUGUGUUUGACCAGCUGAUUCAACAGAGGAUUGAGCAUCA` has a bound/input enrichment of 0.106 ratio.
The bound/input enrichment of `GGGAGUUCUACAGUCCGACGAUCCUUGUAAUUCUCACCAUCAUGGCCACCCUGAAAAUCAGGAACUCCAACUUCUACACGGUGGCAGUGACCAGCCUGUCCAGCCAGAUUCAGUACAUGAACACAGUGGUGAAUUUUACCGGGCAACAGAGGAUUGAGCAUCA` is reported as 0.197 ratio.

Sample 2 — method: RNA Bind-n-Seq; form: RNA; medium: in vitro; concentration: 365 nM; baseline: no-protein control; reading: higher = stronger binding
Target: RNA binding protein fox-1 homolog 2, RRM domain, GST-SBP tag (RBFOX2, Homo sapiens, UniProt O43251-10, residues 100-194)
Setting: natural RNA segment, single round, ends assumed
Target sequence (chain): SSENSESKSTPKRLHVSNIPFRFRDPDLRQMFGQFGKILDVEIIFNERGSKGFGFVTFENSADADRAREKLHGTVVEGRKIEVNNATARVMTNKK
`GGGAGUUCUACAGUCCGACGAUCGCAGACCUAUUGUGGGUAUAGGUAUUUUCUUCCUGGGGAAGAAUUCAGUUCCCGUCUCAGCUGUACUUUUGUGGGCCUGUCAUCUUGAUGACCAGAAUGAAAGCUUGCUCUGGAAUUCUCGGGUGCCAA` — result for “RBNS enrichment (R)”: 4.34.
`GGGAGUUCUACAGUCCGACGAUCACUUUUUUCAAAGGCAAAUUUAAACUAUUUAAGAAAUAGCUCCUAAUACUUGGGAUCUUGUUUAGAGAAUCCACUUUCUGGAAGUUCUCAGCAUAAUUAGUGUUGAGAGUUGGAAUUCUCGGGUGCCAA`: “RBNS enrichment (R)” 0.481.
For `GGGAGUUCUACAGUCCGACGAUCCCAAGCUGCUUGUCCUGGGCCUGCCCCUGUGUAUUCACCACCAAUAAAUCAGACCAUGAAACCAGUGUGGGUUGGGCUGGGAGAAGGGCAGUGACAUUCAAAGCCAGGGUUGGAAUUCUCGGGUGCCAA`, “RBNS enrichment (R)” read 0.393.
`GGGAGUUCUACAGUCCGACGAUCUCCUUUGUAUAGGAGUAUGCUCACUUAAAUUUACAGAAAGAGGUGAGCUGUGUUAAACCUCAGAGUUUAAAAGCUACUGAUAAACUGAAGAAAGUGUCUAUAUUGGAACUUGGAAUUCUCGGGUGCCAA`: “RBNS enrichment (R)” 0.347.
`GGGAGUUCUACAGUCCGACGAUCCCCCUUUUCAUGUCCUGACCCAUGUCCUGCCAGUGUUCUUUCCAUGCUUUAAGUUGACUCUUUCUUCCUCCCUUCUCCCUCCAGACCUGUUCCUACCCUUGCUGAACAGCUGGAAUUCUCGGGUGCCAA` — result for “RBNS enrichment (R)”: 1.31.

Sample 3 — method: protein binding microarray; form: double-stranded DNA, one strand shown; medium: in vitro; concentration: not given; baseline: not given; reading: higher = stronger binding
Target: Histone acetyltransferase KAT6A, winged helix 1, GST fusion (KAT6A, Homo sapiens, UniProt Q92794, residues 1-85)
Setting: 8-mer, flanks averaged, mean of 2 arrays, mostly near background
Construct (chain): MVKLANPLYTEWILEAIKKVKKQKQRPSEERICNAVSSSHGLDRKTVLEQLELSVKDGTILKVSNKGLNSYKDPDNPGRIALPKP
For `AGGCCGCA`, the E-score was 0.0845.
For `ATGGCCAC`, the E-score was -0.0825.
`AGACCTCG` gave an E-score of 0.0204.
For `GTCTGATA`, the E-score was -0.0418.
`AGGAAGAA` has an E-score of -0.183.
The E-score of `AAGTCGCT` is reported as 0.0254.
With `AAAGTACC` the E-score was 0.00371.

Other studies, line by line
The fold induction of `PhoQ, residues 284 288 289 292 302 303 AQGLTV` is reported as 22.2 (PhoP, residues 12 14 15 18 19 IFFTR (Escherichia coli, UniProt P23836); Sort-seq, refers to: YFP reporter; E. coli; PhoQ-PhoP variant library, added: 10 µM Mg2+; baseline: high Mg2+ state, higher = stronger signaling).

Repeated from above (sample 2):
`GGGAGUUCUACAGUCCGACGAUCCCCCUUUUCAUGUCCUGACCCAUGUCCUGCCAGUGUUCUUUCCAUGCUUUAAGUUGACUCUUUCUUCCUCCCUUCUCCCUCCAGACCUGUUCCUACCCUUGCUGAACAGCUGGAAUUCUCGGGUGCCAA` — result for “RBNS enrichment (R)”: 1.31.
